Experimental data of several laboratories.
A part holds a random share of what one study measured.

Set 1
Target: Histone acetyltransferase KAT6A, winged helix 1, GST fusion (KAT6A, Homo sapiens, UniProt Q92794, residues 1-85)
Method: protein binding microarray
Form: double-stranded DNA, one strand shown
Sample: in vitro
Tested at: not given
Setting: 8-mer, flanks averaged, mean of 2 arrays, mostly near background
Relative to: not given
Direction: higher = stronger binding
Endpoint: E-score
Construct (chain): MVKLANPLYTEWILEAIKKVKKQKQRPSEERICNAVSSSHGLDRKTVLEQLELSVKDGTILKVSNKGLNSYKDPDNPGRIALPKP
CGCGTATA: 0.322
ATTAGCGG: 0.246
ATCTCCAA: -0.284
ACCTTCTC: -0.222
GGGCTTAC: 0.0831
CGAGATTC: -0.0258
ATATACCA: -0.202
CTTTAAAC: -0.15
AATGTGCC: 0.0187
GGTACGGA: 0.29
GGGTATTA: 0.0828
TACCCGGA: 0.238
AATACCTA: -0.193
AAGGAAAA: -0.109
ACGTAGAA: -0.117
CCTAGGAG: -0.142
CACTAAGC: -0.172
CAGCAGCC: -0.208
CCCTTAGA: -0.283
ACATATAT: -0.0731
ATCAGAGG: -0.158
ACCCTTTC: 0.0494
CATAGCCA: -0.18
CTAGCGAG: -0.00553
AGGACACA: -0.203

Set 2
Target: Fragile X messenger ribonucleoprotein 1, C-terminal low-complexity region (Fmr1, Mus musculus, UniProt P35922)
Method: RNA Bind-n-Seq
Form: RNA
Sample: in vitro
Tested at: 200 nM
Setting: whole 134-nt RNA, ends assumed
Together with: 150 mM LiCl
Relative to: input library
Direction: higher = stronger binding
Endpoint: log2 enrichment
All molecules: 7-deaza-guanosine replaces G
Constant ends, left off below: GGGAGUUCUACAGUCCGACGAUC … UGGAAUUCUCGGGUGUCAAGG
CUCAAGUCCUGUGCUACACAUCGUAUGUACCGAAUCGGGGUGGUGGGGUGGGGAAAGUAUUAUGUUACGCCGUUCGGAUCUGCACUUCCA: -0.938
ACCAUGCAGGUGGGCAUCUUUGGGAAGUGGGGCAAGGGGGCGAUAGGGAGGGGGGUAACACUUUGGGAACAGGUGGUCCCAGGUCGUUUC: 0.517
CUGUGCUACACAUCGUAUGUACCGAAUCGGGAAAAAAAGGAAAAAAAGGGAAAAAAAGGGGAAAGUAUUAUGUUACGCCGUUCGGAUCUG: 0.0377
UCCUGUGCUACACAUCGUAUGUACCGAAUCGGGUUUGGGUUUUUUUGGGAAAAAAAGGGAAAGUAUUAUGUUACGCCGUUCGGAUCUGCA: -0.959
CUCAAGUCCUGUGCUACACAUCGUAUGUACCGAAUCGGGGAGGGGAGGGAGGGGAAAGUAUUAUGUUACGCCGUUCGGAUCUGCACUUCC: -0.174
CUGUGCUACACAUCGUAUGUACCGAAUCGGGCCCCCCCGGGGCCCCCCCGGGGCCCCCCCGGAAAGUAUUAUGUUACGCCGUUCGGAUCU: 0.0235
UCCUGUGCUACACAUCGUAUGUACCGAAUCGGGAAAAAAGGGGAAAAAAGGAAAAAAGGGAAAGUAUUAUGUUACGCCGUUCGGAUCUGC: -0.175
UCAAGUCCUGUGCUACACAUCGUAUGUACCGAAUCGGGUUUGGUUUGGGUUUGGGAAAGUAUUAUGUUACGCCGUUCGGAUCUGCACUUC: -2.19

Set 3
Target: RNA binding protein fox-1 homolog 2, RRM domain, GST-SBP tag (RBFOX2, Homo sapiens, UniProt O43251-10, residues 100-194)
Method: RNA Bind-n-Seq
Form: RNA
Sample: in vitro
Tested at: 365 nM
Setting: natural RNA segment, single round, ends assumed
Relative to: no-protein control
Direction: higher = stronger binding
Endpoint: RBNS enrichment (R)
Constant ends, left off below: GGGAGUUCUACAGUCCGACGAUC … UGGAAUUCUCGGGUGCCAA
Residues (chain): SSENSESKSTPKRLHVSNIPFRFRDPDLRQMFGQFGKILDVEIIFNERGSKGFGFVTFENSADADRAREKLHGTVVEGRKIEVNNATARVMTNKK
UGAGCUGGUGCGUUUAAGGAACAGGCCAGCACUGGCAUUCGCAAGCAGUGGGGAAGGGGAGAGAUGCCGAGGUGGUCAGUAUCCUGACUUUCAGAGGCCUUUUUUUGUUU: 0.575
GUUGCAUGGGUGUGUGUCGCUGUGCAGGCCUGCCUGGGCUACCAUCUCCACUCCCCAUGUCUCUGAGGUUCACUCCAGCCACCAUUUCUUUAGGCAGCUCUGCCUUAACC: 0.902
UUACUGGGAGCCACGUAAAUGGAACCUUGACCAUAUUUCUGCAAUAAACAGUUUAAUUUGUGUCUUUCCACUGGUACAGGGUUGUCUGCUUUGCCCUUGCUCACGUGCAG: 1.86
CAGGCUCUAGAGAGAGGGAGAAACAAGUGGACCUCGUCCCAUCUUCACUCUUCACUUGAGUUGGCUGUGUUCGGGGGAGCAGAGAGAGCCAGACAGCCCCAAGCUUCUGA: 0.312
GUAUCUUGACCACCUGGCACCAUGCAUGGCCAGAGCUCAUGUCAUCUCCUGCCUCUGUCACCUCAGUGCAGGGAAACUAUGGCCCCUGUGGUCUUGCUGUCUCUCCCACU: 1.07
CACUAGGACCCUGUUGUAUCCUCAACUGCAAGUUUCUGGACUAGUCUCCCAACGUUUGCCUCCCAAUGUUGUCCCUUUCCUUCGUUCCCAUGGUAAAGCUCCUCUCGCUU: 1.26
UGUGUUCUCUAAUCAAUAGUGGUUUAGCUUUCUUUUCUAUUUCACUCGUUUCUAGGGUUUUUUAUUUGCAGUUUAGGAACUAUUAGGAAUGUCAGGACUUUAUCAGCAGG: 1.83
AUCUGUCCACAAUGCCUACUGUCUCUGUGGUGAAAUAUUAAAAUAUGUAAGCUCACAUGGAAGUUUAAGAAUUUCUGUGUUAAUACUUGGAAUAACCCAGAGAAAAGAAG: 0.647

Set 4
Target: RING finger protein unkempt homolog, zinc fingers 1-6, GST-SBP tag (UNK, Homo sapiens, UniProt Q9C0B0, residues 30-357)
Chain of UniProt Q9C0B0 (30-357, looked up): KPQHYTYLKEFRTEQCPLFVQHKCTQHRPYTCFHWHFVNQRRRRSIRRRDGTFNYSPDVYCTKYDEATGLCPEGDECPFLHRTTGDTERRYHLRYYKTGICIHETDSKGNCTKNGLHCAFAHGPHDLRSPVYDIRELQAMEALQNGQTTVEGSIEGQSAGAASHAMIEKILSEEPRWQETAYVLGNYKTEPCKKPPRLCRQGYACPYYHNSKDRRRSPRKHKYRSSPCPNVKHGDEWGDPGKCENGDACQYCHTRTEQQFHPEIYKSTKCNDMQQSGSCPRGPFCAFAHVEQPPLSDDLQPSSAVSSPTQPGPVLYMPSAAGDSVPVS
Method: RNA Bind-n-Seq
Form: RNA
Sample: in vitro
Tested at: not given
Setting: RNA with constant flanks, human-mouse chimeric sites, ends assumed
Relative to: input RNA pool
Direction: higher = stronger binding
Endpoint: bound/input enrichment
Constant ends, left off below: GGGAGUUCUACAGUCCGACGAUC … CAACAGAGGAUUGAGCAUCA
AGAAUCUUGGGACUGUUUUACUUAAUUGGUCAUUGAUAUCUCAACAAACAUGGAGAUGAGAUUAGAAAUCUUGACAUCAACAGGUAUUAAGCAGAAAAAACCAUGGCCACGUGUCUCCUG: 0.113 ratio
ACUCAGAGAUCCACCUCCCAAAGUGCUCUGGAGCUCUGUGUGGCCACCACACCUAACUUGAUGGAUAUAUAUUUUUUUUAAUAUGAAUCUUCCUGUUCUUCAUCCAGAGAAAGAUUUGUU: 0.877 ratio
ACCUCCCAGGCCUGGGACACCCCACCCCCGCUUUUUGAAAGUGUGUUGGCGUUUCUUUUCCUUCCCCAUACAAAGUGAUUACAGUUUCCCCCGCAAGGGUCUAUCGAAGGGCUUGACGGA: 0.494 ratio
AUGGAACAUUUCGAUGCGUCACUCAGUACCUAUUUCAAGGCAUUGCUGGGCCCCCGAGAUACAAGAGUCAAAGGAUGGUUCCUCCUGGACAAUUACAUCCCUACGUUUAUCUGCUCUGUU: 0.115 ratio
CUCUUUGAAUCAUUCAAGAGUUUUGAAGGUCUCUUUUAUUUUCUGGGAUCCAUUGUUAACUUUAGUCAGGACCCAGAUGUGCACUUUAAAUAUAUUCAGGCAGCUUGCAAGACUGGGCAA: 0.991 ratio
AUCCAGUACUCCAAUCACAAAGAACUAAAGACAGAUAAUACAUUAAACCAACGUGCUCAGGCAGUUCUUCAAGCUGUGACAGCUGUCCAGACAGCAAAUACUCCUCUUAGUGGCACCACA: 0.404 ratio
ACUCAGAGAUCCACCUCCCAAAGUGCUGGGAGUAAAGUCUGAUAUUACACACCUAACUUGAUGGAUAUAUAUUUUUUUUAAUAUGAAUCUUCCUGUUCGUCCAGGGAAGAAAGAUUUGUU: 0.863 ratio
GAUCCACAGUGGUCUGAGGAACAGCUGAUUGCUGCAAAAUUCUGUUUUGCUGGCCUUGUUAUAGGGCAGACUGAAGUGGACAUCAUGAGUCAUGCCACACAGGCUAUUUUUGAAAUUCUG: 0.216 ratio

Set 5
Target: Interferon regulatory factor 7, full length, phosphomimetic (IRF7, Homo sapiens, UniProt Q92985, residues 1-503, S101K/S471D/S472D/S475D/S476D/S477D/S483D/S484D/S487D)
Chain of UniProt Q92985 (whole entry, unmodified, looked up): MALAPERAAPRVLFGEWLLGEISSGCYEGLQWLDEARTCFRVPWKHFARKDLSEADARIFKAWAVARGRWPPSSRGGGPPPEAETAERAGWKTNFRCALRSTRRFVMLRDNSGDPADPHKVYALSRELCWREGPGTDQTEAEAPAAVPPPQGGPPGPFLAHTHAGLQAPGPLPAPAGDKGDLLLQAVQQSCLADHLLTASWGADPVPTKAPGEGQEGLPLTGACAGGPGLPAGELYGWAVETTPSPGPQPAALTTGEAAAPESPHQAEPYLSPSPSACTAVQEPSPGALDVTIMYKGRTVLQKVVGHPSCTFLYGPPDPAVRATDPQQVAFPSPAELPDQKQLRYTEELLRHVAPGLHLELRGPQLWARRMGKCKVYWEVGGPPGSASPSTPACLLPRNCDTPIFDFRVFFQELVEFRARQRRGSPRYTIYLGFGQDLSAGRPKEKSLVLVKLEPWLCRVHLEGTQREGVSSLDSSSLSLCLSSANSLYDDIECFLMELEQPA
Method: protein-binding microarray
Form: double-stranded DNA, one strand shown
Sample: in vitro
Tested at: 250 nM
Setting: 60-bp whole probe
Together with: salmon DNA 0.4 mg/ml
Relative to: random background probes
Direction: higher = stronger binding
Endpoint: log fluorescence
Constant ends, left off below: GCCTAGCAC … GTCTTGATTCGCTTGACGCTGCTG
GACGGACTGGGCACTGGGGACGTGCTA: -0.692 z-score
GACAGACTGGGGTTTCGGGACGTGCTA: 1 z-score
TTAGGTATCGACATTCGGTTAGTGCTA: 1.13 z-score
GACGGTCTCGGTTTCGGGTCGTGCTAG: 10.4 z-score
TTAGATATCATTCTCGATTAGTGCTAG: 1.12 z-score
GACGAACTGGGGCTTCGAGACGTGCTA: -0.645 z-score
GACGATCTCCTTCTCCTGACGTGCTAG: 0.181 z-score
TTAGAACTGAGTTTTGATTAGTGCTAG: 0.48 z-score
TCATCCATGCTCTGTCGCACTGTGCTA: -0.0809 z-score
TTCGGACTGGACTTTCGGTTAGTGCTA: 0.348 z-score
GACGTTTTCGGGACTGGGGACGTGCTA: 0.934 z-score
GGCTTCCTCTTTCTCTGCTAGTGCTAG: 1.53 z-score
TCAGGTATCCTACTGCTTTAGTGCTAG: 0.0565 z-score
ATTTTTTTGCATTGCTTCTAGTGCTAG: 0.749 z-score
TTAGGTCTCAGTATCGGTTAGTGCTAG: 1.56 z-score
TATTATATCTGTGTTATTAAGTGCTAG: 0.717 z-score
TTAGATTTCAGTTTCGATAAGTGCTAG: 5.28 z-score
TTATAACTGAGTCTCGATTAGTGCTAG: 1.39 z-score
CAGAGCCTCAGTCCTCACACAGTGCTA: -0.717 z-score

Repeated from above (set 2):
ACCAUGCAGGUGGGCAUCUUUGGGAAGUGGGGCAAGGGGGCGAUAGGGAGGGGGGUAACACUUUGGGAACAGGUGGUCCCAGGUCGUUUC: 0.517
CUGUGCUACACAUCGUAUGUACCGAAUCGGGAAAAAAAGGAAAAAAAGGGAAAAAAAGGGGAAAGUAUUAUGUUACGCCGUUCGGAUCUG: 0.0377
UCCUGUGCUACACAUCGUAUGUACCGAAUCGGGUUUGGGUUUUUUUGGGAAAAAAAGGGAAAGUAUUAUGUUACGCCGUUCGGAUCUGCA: -0.959
CUCAAGUCCUGUGCUACACAUCGUAUGUACCGAAUCGGGGAGGGGAGGGAGGGGAAAGUAUUAUGUUACGCCGUUCGGAUCUGCACUUCC: -0.174
